Assay results pooled from the literature.
Each numbered part is a random draw from the data of one study; scales do not carry over between parts.
UniProt P21917, sequence (whole entry, looked up): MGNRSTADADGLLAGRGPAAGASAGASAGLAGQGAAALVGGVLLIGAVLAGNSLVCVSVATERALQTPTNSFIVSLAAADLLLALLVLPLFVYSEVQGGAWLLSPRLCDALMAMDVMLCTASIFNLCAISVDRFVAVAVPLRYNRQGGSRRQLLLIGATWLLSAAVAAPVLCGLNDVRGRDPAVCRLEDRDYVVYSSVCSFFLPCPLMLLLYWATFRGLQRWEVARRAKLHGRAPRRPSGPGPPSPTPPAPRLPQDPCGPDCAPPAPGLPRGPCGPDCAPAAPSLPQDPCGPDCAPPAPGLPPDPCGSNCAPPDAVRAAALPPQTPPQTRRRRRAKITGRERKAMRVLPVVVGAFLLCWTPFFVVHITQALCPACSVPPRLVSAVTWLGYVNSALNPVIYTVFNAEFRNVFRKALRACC
UniProt Q9H3N8, sequence (whole entry, looked up): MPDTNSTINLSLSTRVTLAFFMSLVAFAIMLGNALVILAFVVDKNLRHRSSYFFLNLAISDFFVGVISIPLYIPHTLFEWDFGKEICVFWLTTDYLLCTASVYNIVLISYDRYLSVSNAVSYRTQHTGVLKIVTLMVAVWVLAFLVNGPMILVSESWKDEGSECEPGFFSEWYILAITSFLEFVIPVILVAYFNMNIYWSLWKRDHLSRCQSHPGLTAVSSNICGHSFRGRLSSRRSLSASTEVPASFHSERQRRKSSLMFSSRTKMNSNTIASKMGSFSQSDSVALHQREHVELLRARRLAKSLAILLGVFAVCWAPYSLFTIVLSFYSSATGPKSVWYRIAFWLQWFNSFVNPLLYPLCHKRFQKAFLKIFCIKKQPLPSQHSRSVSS
UniProt P46098, sequence (whole entry, looked up): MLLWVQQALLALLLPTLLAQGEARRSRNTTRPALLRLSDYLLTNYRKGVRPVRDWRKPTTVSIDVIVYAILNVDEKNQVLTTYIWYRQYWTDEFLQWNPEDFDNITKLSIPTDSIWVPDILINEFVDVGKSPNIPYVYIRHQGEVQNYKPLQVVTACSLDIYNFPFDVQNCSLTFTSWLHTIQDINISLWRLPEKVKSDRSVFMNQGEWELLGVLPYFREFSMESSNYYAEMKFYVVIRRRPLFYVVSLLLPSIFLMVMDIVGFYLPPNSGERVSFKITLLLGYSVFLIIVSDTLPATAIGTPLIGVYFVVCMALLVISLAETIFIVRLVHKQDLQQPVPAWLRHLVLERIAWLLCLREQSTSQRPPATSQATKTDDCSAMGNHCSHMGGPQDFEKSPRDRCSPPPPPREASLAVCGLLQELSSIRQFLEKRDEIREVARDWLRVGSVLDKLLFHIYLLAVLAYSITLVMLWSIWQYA
UniProt P08172, sequence (whole entry, looked up): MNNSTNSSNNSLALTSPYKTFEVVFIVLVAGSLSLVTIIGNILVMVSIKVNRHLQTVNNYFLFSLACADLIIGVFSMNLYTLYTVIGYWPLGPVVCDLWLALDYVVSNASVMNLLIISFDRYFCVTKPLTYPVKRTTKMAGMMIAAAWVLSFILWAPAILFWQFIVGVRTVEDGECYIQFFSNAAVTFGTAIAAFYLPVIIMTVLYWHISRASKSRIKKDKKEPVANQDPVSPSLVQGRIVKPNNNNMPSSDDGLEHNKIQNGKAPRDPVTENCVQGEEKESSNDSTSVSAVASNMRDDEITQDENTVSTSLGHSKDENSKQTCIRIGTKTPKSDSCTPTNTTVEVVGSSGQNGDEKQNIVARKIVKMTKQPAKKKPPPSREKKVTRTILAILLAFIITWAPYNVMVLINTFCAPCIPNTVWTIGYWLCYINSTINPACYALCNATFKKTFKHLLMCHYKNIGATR
UniProt P35368, sequence (whole entry, looked up): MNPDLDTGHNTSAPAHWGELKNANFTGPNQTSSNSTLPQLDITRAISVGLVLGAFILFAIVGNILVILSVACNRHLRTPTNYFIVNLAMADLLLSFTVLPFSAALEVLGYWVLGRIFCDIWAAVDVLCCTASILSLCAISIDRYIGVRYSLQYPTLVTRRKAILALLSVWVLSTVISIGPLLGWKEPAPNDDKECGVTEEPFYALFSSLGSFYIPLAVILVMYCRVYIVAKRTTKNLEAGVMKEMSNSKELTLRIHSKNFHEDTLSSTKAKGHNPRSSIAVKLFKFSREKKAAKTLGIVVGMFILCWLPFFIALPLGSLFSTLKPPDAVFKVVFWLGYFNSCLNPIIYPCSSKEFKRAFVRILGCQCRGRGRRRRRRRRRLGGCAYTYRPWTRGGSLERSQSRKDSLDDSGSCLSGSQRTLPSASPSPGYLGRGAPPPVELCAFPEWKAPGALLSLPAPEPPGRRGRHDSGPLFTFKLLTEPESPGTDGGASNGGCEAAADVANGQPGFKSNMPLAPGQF
UniProt P08913, sequence (whole entry, looked up): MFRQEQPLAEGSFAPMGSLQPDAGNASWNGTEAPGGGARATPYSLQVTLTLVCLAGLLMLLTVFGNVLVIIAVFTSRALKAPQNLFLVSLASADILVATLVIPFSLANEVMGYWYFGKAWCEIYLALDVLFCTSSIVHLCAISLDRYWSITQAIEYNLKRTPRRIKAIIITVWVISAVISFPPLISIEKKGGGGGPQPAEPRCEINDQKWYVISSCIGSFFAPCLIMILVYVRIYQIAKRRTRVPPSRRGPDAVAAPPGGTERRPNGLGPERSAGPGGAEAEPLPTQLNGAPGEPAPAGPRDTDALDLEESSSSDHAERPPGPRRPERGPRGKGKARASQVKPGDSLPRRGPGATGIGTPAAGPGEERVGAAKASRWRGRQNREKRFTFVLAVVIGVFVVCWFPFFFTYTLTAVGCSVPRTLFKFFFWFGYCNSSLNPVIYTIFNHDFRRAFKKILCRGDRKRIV
UniProt P50406, sequence (whole entry, looked up): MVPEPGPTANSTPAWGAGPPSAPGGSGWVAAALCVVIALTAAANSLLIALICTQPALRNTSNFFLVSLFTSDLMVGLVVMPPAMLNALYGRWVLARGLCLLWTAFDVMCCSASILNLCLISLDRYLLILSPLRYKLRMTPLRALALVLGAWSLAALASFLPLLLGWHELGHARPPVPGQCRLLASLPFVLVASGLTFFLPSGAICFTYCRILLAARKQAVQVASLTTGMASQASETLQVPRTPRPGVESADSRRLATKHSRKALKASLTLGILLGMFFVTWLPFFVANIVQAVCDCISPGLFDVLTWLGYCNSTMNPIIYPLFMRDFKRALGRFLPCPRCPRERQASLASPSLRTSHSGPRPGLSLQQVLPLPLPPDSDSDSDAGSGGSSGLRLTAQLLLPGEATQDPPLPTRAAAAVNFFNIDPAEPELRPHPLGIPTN
UniProt P08912, sequence (whole entry, looked up): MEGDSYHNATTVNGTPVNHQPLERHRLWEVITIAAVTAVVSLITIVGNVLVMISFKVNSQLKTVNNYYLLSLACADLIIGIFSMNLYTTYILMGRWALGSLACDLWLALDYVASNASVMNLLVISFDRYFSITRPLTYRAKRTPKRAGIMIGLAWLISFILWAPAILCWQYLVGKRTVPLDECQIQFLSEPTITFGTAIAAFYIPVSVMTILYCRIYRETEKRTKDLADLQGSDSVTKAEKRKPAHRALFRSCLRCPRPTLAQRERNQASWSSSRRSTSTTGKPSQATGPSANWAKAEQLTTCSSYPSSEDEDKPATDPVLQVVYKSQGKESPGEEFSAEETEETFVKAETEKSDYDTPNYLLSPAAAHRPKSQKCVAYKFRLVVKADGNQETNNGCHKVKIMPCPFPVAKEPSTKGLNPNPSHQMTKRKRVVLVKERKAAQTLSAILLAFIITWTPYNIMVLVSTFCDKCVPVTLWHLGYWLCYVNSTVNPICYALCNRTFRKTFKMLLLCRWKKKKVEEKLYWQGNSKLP
UniProt Q5BJF2, sequence (whole entry, looked up): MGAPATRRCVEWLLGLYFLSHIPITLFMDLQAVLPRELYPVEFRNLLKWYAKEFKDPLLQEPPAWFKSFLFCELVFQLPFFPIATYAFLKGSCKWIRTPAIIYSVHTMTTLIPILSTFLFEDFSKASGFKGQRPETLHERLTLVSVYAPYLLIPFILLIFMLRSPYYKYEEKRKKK
UniProt P18825, sequence (whole entry, looked up): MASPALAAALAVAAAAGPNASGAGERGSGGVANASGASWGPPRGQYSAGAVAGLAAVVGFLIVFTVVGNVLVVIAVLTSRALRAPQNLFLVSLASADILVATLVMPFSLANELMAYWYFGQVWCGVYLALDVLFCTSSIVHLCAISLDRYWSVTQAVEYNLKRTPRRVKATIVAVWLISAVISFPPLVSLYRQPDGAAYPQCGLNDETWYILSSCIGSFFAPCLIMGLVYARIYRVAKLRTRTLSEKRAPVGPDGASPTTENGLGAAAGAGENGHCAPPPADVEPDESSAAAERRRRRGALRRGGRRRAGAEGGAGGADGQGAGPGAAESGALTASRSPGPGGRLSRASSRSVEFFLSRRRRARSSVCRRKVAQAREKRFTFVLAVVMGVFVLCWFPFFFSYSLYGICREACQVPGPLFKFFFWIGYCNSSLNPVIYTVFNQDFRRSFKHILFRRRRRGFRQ
UniProt P25100, sequence (whole entry, looked up): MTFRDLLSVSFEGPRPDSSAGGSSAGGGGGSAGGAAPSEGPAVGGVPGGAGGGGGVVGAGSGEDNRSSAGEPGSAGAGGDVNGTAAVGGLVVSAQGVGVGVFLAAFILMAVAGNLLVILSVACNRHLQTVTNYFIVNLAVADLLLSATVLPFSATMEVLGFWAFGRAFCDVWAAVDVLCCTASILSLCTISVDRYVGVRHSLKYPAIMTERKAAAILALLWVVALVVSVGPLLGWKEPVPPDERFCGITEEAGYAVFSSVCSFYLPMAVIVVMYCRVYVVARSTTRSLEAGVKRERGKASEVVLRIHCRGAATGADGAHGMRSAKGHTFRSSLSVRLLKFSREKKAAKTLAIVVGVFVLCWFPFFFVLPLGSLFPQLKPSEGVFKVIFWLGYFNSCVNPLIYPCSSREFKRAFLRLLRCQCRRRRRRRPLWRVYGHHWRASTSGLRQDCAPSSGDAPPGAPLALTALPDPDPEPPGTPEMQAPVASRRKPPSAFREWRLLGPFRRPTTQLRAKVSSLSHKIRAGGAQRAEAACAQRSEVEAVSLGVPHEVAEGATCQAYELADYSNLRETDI

Study 1
SMILES: Cc1cc2c(-c3ccco3)cnc(N[C@H]3CCN(C)C[C@@H]3C(=O)NC3CCCCC3)c2[nH]c1=O
Tested at: 10 µM
target	observed	inhibition [%]
ADRA1D (Homo sapiens, UniProt P25100)	ligand displacement	7.87
HTR3A (Homo sapiens, UniProt P46098)	cell-free assay	1.04
ADRA1B (Homo sapiens, UniProt P35368)	ligand displacement	1.98
HRH1 (Homo sapiens, UniProt P35367)	ligand displacement	11.7
TMEM97 (Homo sapiens, UniProt Q5BJF2)	ligand displacement	44.1
ADRB2 (Homo sapiens, UniProt P07550)	ligand displacement	4.04
HRH4 (Homo sapiens, UniProt Q9H3N8)	ligand displacement	-23.9
HTR7 (Homo sapiens, UniProt P34969)	ligand displacement	-22
CHRM2 (Homo sapiens, UniProt P08172)	ligand displacement	5.25
CHRM5 (Homo sapiens, UniProt P08912)	ligand displacement	7.44
ADRA2A (Homo sapiens, UniProt P08913)	ligand displacement	9.8
HTR6 (Homo sapiens, UniProt P50406)	ligand displacement	-15.6
DRD4 (Homo sapiens, UniProt P21917)	ligand displacement	17.4
ADRA2C (Homo sapiens, UniProt P18825)	ligand displacement	10.8

Study 2
Target: Ephrin type-B receptor 2 (EPHB2, Homo sapiens, UniProt P29323)
Observed: enzyme activity
Action: inhibitor
Tested at: 0.5 µM
Relative to: control
Target sequence (P29323 1-1055): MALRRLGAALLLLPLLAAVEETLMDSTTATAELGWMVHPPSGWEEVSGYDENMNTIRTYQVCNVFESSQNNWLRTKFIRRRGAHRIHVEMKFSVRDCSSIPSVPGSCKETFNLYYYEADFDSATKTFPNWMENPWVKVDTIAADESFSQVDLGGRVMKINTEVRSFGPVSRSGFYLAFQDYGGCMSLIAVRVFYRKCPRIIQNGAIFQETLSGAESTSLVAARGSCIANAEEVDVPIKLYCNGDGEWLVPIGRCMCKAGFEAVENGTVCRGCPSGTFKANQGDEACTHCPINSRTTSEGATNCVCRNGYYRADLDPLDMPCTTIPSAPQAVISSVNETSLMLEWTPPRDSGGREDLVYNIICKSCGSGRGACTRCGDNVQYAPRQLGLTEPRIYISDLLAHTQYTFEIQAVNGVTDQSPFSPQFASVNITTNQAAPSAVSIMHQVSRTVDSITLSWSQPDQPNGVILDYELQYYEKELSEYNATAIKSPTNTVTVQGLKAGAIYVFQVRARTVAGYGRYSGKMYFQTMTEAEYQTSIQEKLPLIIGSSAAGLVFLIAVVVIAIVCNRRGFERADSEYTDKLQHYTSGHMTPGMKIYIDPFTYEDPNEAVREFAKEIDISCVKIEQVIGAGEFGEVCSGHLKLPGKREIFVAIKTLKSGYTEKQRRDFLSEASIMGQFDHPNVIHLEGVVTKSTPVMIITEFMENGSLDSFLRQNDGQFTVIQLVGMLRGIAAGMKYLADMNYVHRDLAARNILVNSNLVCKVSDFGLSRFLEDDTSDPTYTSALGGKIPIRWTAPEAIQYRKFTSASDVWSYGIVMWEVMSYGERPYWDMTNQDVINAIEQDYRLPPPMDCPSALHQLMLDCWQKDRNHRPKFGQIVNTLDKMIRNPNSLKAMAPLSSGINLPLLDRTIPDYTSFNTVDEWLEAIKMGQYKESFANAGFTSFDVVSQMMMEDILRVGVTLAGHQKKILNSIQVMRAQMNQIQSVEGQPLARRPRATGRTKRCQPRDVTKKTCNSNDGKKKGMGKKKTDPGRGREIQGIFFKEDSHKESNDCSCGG
SMILES	remaining activity [%]
NC(=O)c1ccc(N(C(N)=O)c2c(F)cccc2F)nc1-c1ccc(F)cc1F	107
Nc1ncnc2c1cnn2-c1ccccc1	96.2
Cc1cc(Nc2nc(-c3ccccc3)nc3ccccc23)n[nH]1	76.7
Oc1ccc(Nc2nc(-c3ccc(Cl)cc3)cs2)cc1	101
CSc1nc(-c2ccnc(N[C@@H](C)c3ccccc3)c2)c(-c2ccc(F)cc2)[nH]1 (racemic)	85.4
CC(=O)c1ccc(N2CCOCC2)cc1O	82.5
Cc1ccc(NC2=CC(=O)c3sc(C)nc3C2=O)cc1	100
O=S(=O)(NCCNC/C=C/c1ccc(Br)cc1)c1cccc2cnccc12	81.7
Fc1ccc(-c2nc3n(c2-c2ccncc2)CCS3)cc1	99.3
O=C1Cc2c([nH]c3ccc([N+](=O)[O-])cc23)-c2ccccc2N1	101
CCc1[nH]c(-c2ccc(OC)cc2)nc1-c1ccncc1	111
O=C1NC(=O)C(c2c[nH]c3ccccc23)=C1c1c[nH]c2ccccc12	96.9
Nc1nc(Nc2ccc(S(N)(=O)=O)cc2)nn1C(=O)c1c(F)cccc1F	96.1
COc1ccc(S(=O)(=O)N(CCO)c2ccccc2CN(C)CC=Cc2ccc(Cl)cc2)cc1	97.7
COc1cc(Nc2c(C#N)cnc3cc(OCCCN4CCN(C)CC4)c(OC)cc23)c(Cl)cc1Cl	17.4
Nc1nccc(-c2c(-c3ccc(F)cc3)ncn2C2CCNCC2)n1	103
CC(C)(C)n1nc(Cc2cccc3ccccc23)c2c(N)ncnc21	44.6
CC[n+]1c(/C=C/N(C)c2ccccc2)n(-c2ccccc2)c2ccc(-c3nc4ccccc4s3)cc21	99.1
CCCC(=O)Oc1ccc2[nH]c(C(=O)c3cc4ccccc4[nH]3)cc2c1	98.4
CC#CC(=O)Nc1cc2c(Nc3ccc(F)c(Cl)c3)ncnc2cn1	80.9
N#CC(=C(N)Sc1ccc(N)cc1)c1ccccc1C(F)(F)F	101

Study 3
Cell line: A-375
Tested at: 100 µM
Time: 36 h
SMILES	viability
O=C(NCCN1CCOCC1)c1ccc(Cl)cc1	101%
COc1cc(OC)c(C(=O)CCCN2CCCC2)c(OC)c1	125%
CC(CN(C)C)CN1c2ccccc2CCc2ccccc21 (stereo not drawn)	-1.21%
CC1(C)C(C=C(Cl)Cl)C1C(=O)OCc1cccc(Oc2ccccc2)c1 (stereo not drawn)	94.1%
CC(/C=C/C=C(\C)C(=O)O[C@@H]1O[C@H](CO[C@@H]2O[C@H](CO)[C@@H](O)[C@H](O)[C@H]2O)[C@@H](O)[C@H](O)[C@H]1O)=C\C=C\C=C(C)\C=C\C=C(/C)C(=O)O[C@@H]1O[C@H](CO[C@@H]2O[C@H](CO)[C@@H](O)[C@H](O)[C@H]2O)[C@@H](O)[C@H](O)[C@H]1O	96.8%
OC[C@@H](O)[C@@H](O)[C@H](O)[C@H](O)CO	107%
COC(=O)C1=C(C)NC(C)=C(C(=O)OCC(C)C)C1c1ccccc1[N+](=O)[O-] (stereo not drawn)	-1.31%
CN1CCCCC1CCN1c2ccccc2Sc2ccc([S+](C)[O-])cc21 (stereo not drawn)	2.58%
O=C(Nc1ccc([N+](=O)[O-])cc1Cl)c1cc(Cl)ccc1O	12.5%
CC(C)(CO)C(O)C(=O)NCCCO (stereo not drawn)	106%
CC[C@@H]1/C=C(\C)C[C@H](C)C[C@H](OC)[C@H]2O[C@@](O)(C(=O)C(=O)N3CCCC[C@H]3C(=O)O[C@H](/C(C)=C/[C@@H]3CC[C@H](Cl)[C@H](OC)C3)[C@H](C)[C@@H](O)CC1=O)[C@H](C)C[C@@H]2OC	92.3%
COc1ccc(/C=C/C(=O)Nc2ccccc2C(=O)O)cc1OC	60.2%
C=C1CC[C@H](O)C/C1=C/C=C1\CCC[C@]2(C)[C@@H]([C@H](C)/C=C/[C@H](C)C(C)C)CC[C@@H]12	3.81%
CC(C)(C)c1nc(-c2cccc(NS(=O)(=O)c3c(F)cccc3F)c2F)c(-c2ccnc(N)n2)s1	47.9%
C[n+]1cc2c3c(ccc2c2ccc4cc5c(cc4c21)OCO5)OCO3	-1.92%
Nc1ccc2cc3ccc(N)cc3nc2c1	7.04%
NC(=O)CCCCC1CCSS1 (stereo not drawn)	103%
O=C(NC(Cc1cc(=O)[nH]c2ccccc12)C(=O)O)c1ccc(Cl)cc1 (stereo not drawn)	111%

Other studies, line by line
Structure (SMILES)	host	dose	setting	measurement	result
CC(C)n1cnc(-c2ccc(F)cc2)c1-c1ncc(C(=O)Nc2ccc(N3CCN(C)CC3)cc2)[nH]1	human, idiopathic pulmonary fibrosis	60 mg once daily	trial, treatment-emergent	patients with Hypothyroidism	0%

Some of these lines once more (study 1):
target	observed	inhibition [%]
HRH4 (Homo sapiens, UniProt Q9H3N8)	ligand displacement	-23.9
ADRA2A (Homo sapiens, UniProt P08913)	ligand displacement	9.8
HRH1 (Homo sapiens, UniProt P35367)	ligand displacement	11.7
HTR3A (Homo sapiens, UniProt P46098)	cell-free assay	1.04
ADRA1B (Homo sapiens, UniProt P35368)	ligand displacement	1.98
